Results pooled from the literature.
A part holds a random share of what one study measured. Values joined by “and” are separate records of one study, mostly repeats; a detail may differ.
UniProt O14578, sequence (whole entry, looked up): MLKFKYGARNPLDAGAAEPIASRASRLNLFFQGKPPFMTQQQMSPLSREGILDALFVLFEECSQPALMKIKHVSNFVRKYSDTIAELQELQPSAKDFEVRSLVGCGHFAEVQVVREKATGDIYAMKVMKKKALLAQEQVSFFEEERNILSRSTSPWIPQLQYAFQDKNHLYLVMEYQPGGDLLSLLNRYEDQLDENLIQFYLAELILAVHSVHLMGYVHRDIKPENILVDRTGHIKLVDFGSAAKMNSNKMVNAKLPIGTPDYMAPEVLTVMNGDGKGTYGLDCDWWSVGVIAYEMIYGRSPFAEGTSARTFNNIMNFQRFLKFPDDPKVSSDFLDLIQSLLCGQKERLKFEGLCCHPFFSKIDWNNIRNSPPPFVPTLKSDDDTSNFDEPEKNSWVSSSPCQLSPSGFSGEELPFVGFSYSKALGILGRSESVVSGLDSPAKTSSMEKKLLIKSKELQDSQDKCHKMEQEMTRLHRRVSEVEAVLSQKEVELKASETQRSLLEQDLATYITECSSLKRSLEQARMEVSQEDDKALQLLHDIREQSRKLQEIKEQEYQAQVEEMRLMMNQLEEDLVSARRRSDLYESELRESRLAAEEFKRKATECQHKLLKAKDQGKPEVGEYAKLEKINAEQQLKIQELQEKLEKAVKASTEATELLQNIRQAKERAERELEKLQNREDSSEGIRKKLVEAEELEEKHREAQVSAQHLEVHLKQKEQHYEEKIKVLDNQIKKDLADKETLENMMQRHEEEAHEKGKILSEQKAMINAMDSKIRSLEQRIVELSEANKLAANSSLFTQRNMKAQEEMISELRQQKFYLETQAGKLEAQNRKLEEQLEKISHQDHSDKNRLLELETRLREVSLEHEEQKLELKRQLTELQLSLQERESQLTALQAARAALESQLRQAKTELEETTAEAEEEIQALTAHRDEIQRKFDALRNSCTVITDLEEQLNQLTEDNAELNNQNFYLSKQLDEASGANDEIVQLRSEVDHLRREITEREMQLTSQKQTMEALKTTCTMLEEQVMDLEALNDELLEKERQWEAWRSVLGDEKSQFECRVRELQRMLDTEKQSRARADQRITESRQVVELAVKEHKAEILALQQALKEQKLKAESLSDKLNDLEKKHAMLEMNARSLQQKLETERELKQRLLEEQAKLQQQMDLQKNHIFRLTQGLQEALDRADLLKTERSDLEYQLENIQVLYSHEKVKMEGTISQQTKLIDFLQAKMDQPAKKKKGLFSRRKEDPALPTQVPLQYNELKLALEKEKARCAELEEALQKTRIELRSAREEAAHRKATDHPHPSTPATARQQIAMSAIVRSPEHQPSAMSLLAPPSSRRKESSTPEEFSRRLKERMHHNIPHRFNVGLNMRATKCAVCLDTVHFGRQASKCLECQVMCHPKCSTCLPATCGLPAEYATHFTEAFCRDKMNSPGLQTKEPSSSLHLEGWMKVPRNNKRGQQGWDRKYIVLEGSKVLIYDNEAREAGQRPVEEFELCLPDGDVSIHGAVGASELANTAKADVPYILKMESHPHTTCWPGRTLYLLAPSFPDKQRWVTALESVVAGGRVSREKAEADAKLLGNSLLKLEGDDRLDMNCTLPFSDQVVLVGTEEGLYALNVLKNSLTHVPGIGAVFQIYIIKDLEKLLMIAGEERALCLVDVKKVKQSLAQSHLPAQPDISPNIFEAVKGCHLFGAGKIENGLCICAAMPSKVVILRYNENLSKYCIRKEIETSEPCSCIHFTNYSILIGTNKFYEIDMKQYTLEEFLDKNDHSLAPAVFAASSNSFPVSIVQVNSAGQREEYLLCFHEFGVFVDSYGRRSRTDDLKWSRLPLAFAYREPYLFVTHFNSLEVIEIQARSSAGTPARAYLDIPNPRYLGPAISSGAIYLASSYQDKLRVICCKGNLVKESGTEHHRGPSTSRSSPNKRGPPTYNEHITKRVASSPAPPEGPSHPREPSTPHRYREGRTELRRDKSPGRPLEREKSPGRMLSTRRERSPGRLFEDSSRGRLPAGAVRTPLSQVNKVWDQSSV
UniProt P11309, sequence (whole entry, looked up): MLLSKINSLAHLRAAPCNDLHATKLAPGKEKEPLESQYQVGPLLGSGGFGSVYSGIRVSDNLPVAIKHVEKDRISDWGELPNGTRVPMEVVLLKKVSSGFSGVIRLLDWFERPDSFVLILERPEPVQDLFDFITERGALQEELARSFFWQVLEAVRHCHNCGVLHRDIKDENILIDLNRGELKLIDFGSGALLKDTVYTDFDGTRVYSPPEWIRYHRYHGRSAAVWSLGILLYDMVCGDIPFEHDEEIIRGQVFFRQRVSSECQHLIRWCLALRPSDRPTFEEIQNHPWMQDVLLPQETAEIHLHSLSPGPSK

Study 1
Compound: COc1ccc2c(c1)O[C@@H](c1ccc(OC)c(OC)c1)C[C@H]2NC(=O)C1(c2ccc3c(c2)OC(F)(F)O3)CC1 (single isomer, unassigned)
Concentration: 1 µM
Reference: DMSO
cell line	technique	viability
normal-adjacent epithelium patient-derived organoids sample H	CellTiter-Glo	101% and 125%
normal adjacent epithelium organoid sample F	CellTiter-Glo	90.2%
colorectal tumour organoids	–	92.9%
normal adjacent epithelium organoid sample H	CellTiter-Glo	113%
normal adjacent epithelium organoid sample D	CellTiter-Glo	70.9%
sample I colorectal tumour organoid	–	85.7% and 90.6%
normal-adjacent epithelium patient-derived organoids sample E	CellTiter-Glo	72.1% and 82.1%
sample J colorectal tumour organoid	–	95.5%
sample C colorectal tumour organoid	–	87.1% and 84.4%
normal adjacent epithelium organoid sample G	CellTiter-Glo	108%
sample B colorectal tumour organoid	–	99.1% and 92.2%
normal-adjacent epithelium patient-derived organoids sample G	CellTiter-Glo	108% and 109%

Study 2
Target: DNA polymerase theta, ATPase domain (POLQ, Homo sapiens, UniProt O75417)
UniProt O75417, sequence (whole entry, unmodified, looked up): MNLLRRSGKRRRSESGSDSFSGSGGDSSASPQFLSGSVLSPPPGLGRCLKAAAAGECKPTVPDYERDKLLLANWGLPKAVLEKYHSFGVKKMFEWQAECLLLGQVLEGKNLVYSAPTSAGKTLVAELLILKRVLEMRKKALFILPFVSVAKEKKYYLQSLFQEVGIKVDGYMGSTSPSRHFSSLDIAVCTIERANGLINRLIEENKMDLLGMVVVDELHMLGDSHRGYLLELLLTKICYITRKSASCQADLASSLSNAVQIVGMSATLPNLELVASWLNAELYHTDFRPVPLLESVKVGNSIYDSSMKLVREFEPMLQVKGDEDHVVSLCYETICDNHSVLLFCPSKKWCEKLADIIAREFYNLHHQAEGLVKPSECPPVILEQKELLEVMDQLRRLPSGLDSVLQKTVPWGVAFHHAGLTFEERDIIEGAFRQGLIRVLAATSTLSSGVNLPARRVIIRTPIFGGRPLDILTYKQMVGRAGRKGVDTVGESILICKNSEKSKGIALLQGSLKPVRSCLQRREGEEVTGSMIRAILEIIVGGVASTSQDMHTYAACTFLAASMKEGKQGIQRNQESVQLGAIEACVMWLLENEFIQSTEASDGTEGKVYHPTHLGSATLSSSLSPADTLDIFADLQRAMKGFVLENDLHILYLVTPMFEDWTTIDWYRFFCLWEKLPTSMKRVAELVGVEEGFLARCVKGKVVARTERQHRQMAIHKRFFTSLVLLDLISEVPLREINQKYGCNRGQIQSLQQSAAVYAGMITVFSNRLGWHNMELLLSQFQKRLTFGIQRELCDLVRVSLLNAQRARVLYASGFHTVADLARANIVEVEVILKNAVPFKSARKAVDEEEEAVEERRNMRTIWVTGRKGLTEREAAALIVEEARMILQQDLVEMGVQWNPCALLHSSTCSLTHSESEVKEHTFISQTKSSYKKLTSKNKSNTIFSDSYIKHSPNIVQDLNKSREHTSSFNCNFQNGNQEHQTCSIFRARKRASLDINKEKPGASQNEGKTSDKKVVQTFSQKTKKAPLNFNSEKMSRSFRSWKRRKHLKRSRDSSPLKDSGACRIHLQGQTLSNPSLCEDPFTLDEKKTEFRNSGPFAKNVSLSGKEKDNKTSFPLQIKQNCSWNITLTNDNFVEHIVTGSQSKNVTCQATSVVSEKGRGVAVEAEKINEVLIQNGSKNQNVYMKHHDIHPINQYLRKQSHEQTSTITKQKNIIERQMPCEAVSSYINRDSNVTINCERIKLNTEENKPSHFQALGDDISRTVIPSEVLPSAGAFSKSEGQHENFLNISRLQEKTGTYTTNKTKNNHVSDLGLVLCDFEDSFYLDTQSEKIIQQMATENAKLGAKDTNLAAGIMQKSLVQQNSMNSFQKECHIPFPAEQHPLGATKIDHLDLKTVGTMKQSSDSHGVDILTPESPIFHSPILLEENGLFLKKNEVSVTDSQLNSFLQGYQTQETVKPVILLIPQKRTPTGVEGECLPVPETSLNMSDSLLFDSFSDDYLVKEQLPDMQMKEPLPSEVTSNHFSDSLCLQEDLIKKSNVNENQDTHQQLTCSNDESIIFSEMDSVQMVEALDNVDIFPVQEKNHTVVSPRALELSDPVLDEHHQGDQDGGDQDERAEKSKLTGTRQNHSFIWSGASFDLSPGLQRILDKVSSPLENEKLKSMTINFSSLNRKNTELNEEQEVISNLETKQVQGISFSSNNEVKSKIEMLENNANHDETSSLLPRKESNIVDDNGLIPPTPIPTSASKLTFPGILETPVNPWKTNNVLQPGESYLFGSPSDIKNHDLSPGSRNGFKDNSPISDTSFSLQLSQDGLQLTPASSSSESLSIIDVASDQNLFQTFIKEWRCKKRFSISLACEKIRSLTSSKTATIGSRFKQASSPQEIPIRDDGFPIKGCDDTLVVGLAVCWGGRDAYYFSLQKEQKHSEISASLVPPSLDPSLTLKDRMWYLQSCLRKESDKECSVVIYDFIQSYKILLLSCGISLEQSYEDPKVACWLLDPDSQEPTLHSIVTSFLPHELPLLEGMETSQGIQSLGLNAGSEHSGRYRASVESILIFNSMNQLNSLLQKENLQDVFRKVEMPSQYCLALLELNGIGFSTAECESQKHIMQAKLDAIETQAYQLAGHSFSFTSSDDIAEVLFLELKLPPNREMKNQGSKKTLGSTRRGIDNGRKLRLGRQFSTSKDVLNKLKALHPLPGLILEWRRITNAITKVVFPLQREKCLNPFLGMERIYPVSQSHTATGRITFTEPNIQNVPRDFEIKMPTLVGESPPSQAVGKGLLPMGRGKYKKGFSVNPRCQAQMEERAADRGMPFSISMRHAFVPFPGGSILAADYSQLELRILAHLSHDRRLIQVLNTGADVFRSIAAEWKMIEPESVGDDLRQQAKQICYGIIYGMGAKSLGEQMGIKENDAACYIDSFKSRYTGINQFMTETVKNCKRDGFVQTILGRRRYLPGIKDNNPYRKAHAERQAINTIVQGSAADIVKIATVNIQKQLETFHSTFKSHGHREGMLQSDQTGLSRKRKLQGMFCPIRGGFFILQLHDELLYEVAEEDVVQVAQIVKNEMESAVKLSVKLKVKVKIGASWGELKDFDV
Read-out: enzyme activity
Mode: inhibitor
Concentration: 77 µM
Reference: untreated
SMILES	remaining activity
CCC(=O)O[C@]1(C(=O)CCl)[C@@H](C)C[C@H]2[C@@H]3CCC4=CC(=O)C=C[C@]4(C)[C@@]3(F)[C@@H](O)C[C@@]21C	95.9% and 101%
O[C@@](CCN1CCCCC1)(c1ccccc1)[C@H]1C[C@@H]2C=C[C@H]1C2	95.1%
O=C(NC(Cc1cc(=O)[nH]c2ccccc12)C(=O)O)c1ccc(Cl)cc1 (stereo not drawn)	94.6%
N#CC[C@H](C1CCCC1)n1cc(-c2ncnc3[nH]ccc23)cn1	104%
NC(=O)c1cccc(N)c1	91.5% and 81.9%
O=c1oc2ccccc2c(O)c1Cc1c(O)c2ccccc2oc1=O	98.8%
CN(C)CCCc1cc(C(=O)Nc2ccc(-c3ccncc3)cc2)ccc1O	105%
C[C@@H](O)[C@H]1C(=O)N2C(C(=O)O)=C(S[C@@H]3CN[C@H](CNS(N)(=O)=O)C3)[C@H](C)[C@H]12	93.5%
CC(C[N+](C)(C)C)OC(N)=O (stereo not drawn)	102%
O=C(O[C@H]1C[C@H]2CC[C@@H](C1)[N+]21CCCC1)C(O)(c1ccccc1)c1ccccc1	101%

Study 3
Compound: FC(F)(F)c1ccc(/C=C/c2nc(COc3ccc(CCCCn4ccnn4)cc3)co2)cc1
Read-out: enzyme activity
Mode: inhibitor
Concentration: 0.5 µM
Reference: control
target	remaining activity [%]
PIM1 (Homo sapiens, UniProt P11309)	102
ACVRL1 (Homo sapiens, UniProt P37023)	103
MELK (Homo sapiens, UniProt Q14680)	85.4
ERBB2 (Homo sapiens, UniProt P04626)	102
EPHB3 (Homo sapiens, UniProt P54753)	94.9
BRSK2 (Homo sapiens, UniProt Q8IWQ3)	99.6
FES (Homo sapiens, UniProt P07332)	102
YES1 (Homo sapiens, UniProt P07947)	85
Cyclin-dependent kinase 5, with p35 (CDK5, Homo sapiens, UniProt Q00535)	99.4
RPS6KB2 (Homo sapiens, UniProt Q9UBS0)	103

Study 4
Compound: C=CC(=O)N1CCC([C@@H]2CCNc3c(C(N)=O)c(-c4ccc(Oc5ccccc5)cc4)nn32)CC1
Concentration: 1 µM
target	read-out	mode	inhibition [%]
AAK1 (Homo sapiens, UniProt Q2M2I8)	enzyme activity	inhibitor	1
RIOK3 (Homo sapiens, UniProt O14730)	enzyme activity	inhibitor	34
MAPK13 (Homo sapiens, UniProt O15264)	enzyme activity	inhibitor	0
PRKCD (Homo sapiens, UniProt Q05655)	enzyme activity	inhibitor	8
SIK1 (Homo sapiens, UniProt P57059)	enzyme activity	inhibitor	0
PIK3C2G (Homo sapiens, UniProt O75747)	–	inhibitor	19
MAP2K1 (Homo sapiens, UniProt Q02750)	enzyme activity	inhibitor	100
CIT (Homo sapiens, UniProt O14578)	enzyme activity	inhibitor	14
EGFR (Homo sapiens, UniProt P00533, del752-759)	cell-free assay	–	16
PRKD3 (Homo sapiens, UniProt O94806)	enzyme activity	inhibitor	31

Some of these lines once more (study 1):
cell line	technique	viability
colorectal tumour organoids	–	92.9%
normal adjacent epithelium organoid sample H	CellTiter-Glo	113%
normal adjacent epithelium organoid sample D	CellTiter-Glo	70.9%
sample I colorectal tumour organoid	–	85.7% and 90.6%
normal-adjacent epithelium patient-derived organoids sample E	CellTiter-Glo	72.1% and 82.1%
